Measured values from different studies.
Protocols differ between the studies behind these lines. “And” joins repeats or separate records; there may be more than shown. ± marks the error that the study gave.
dxs: 1-deoxy-D-xylulose-5-phosphate synthase (dxs, Deinococcus radiodurans, UniProt Q9RUB5)
Cytochrome P450 2A13: Cytochrome P450 2A13 (Homo sapiens, UniProt Q16696)
CNGA1: Cyclic nucleotide-gated channel alpha-1 (CNGA1, Bos taurus, UniProt Q00194)

Molecule | target | test | system | conditions | how to read | Kd
Nc1ncnc2c1ncn2[C@@H]1O[C@H](COP(=O)(O)OP(=O)(O)O)[C@@H](O)[C@H]1O | CFTR NBD1 | binding, thermal shift | – | – | – | 6 ± 0.6 µM
CC(=O)N[C@H]1[C@H](O[C@H]2[C@H](O)[C@@H](NC(C)=O)C(O)O[C@@H]2CO)O[C@H](CO)[C@@H](O[C@@H]2O[C@H](CO)[C@@H](O)[C@H](O)[C@H]2NC(C)=O)[C@@H]1O (stereo partly drawn) | Lysozyme C (LYZ, Gallus gallus, UniProt P00698) | binding | – | pH 7.4 | – | 14 ± 2 µM
C[n+]1cccc2cc(C=NNC(=O)c3ccc4ccc5ccc(C(=O)NN=Cc6ccc7c(ccc[n+]7C)c6)nc5c4n3)ccc21 | MYC snap-back G4 DNA | binding, native ESI-MS | 100 mM trimethylammonium acetate | 1 mM KCl | – | 0.058 µM
C[C@]12CCC(=O)C=C1CC[C@@H]1[C@@H]2CC[C@]2(C)C(c3cccnc3)=CC[C@@H]12 | CYP17A1 (Homo sapiens, UniProt P05093) | spectral binding, UV-visible difference spectroscopy | – | pH 7.4, room temperature | lower = stronger binding | 0.0001 ± 0.0004 µM
Nc1ncnc2c1ncn2[C@@H]1O[C@H](COP(=O)(O)OP(=O)(O)O)[C@@H](O)[C@H]1O | ATP1A1 (Sus scrofa, UniProt P05024) | binding, radioligand binding | pig membranes | pH 7.7, 0 °C, ionic strength 578 mM, with: NaCl 519 mM | – | 9.12 ± 0.181 µM
O=C(NCCc1ccc(C(F)(F)F)nc1)c1cc2c(s1)CCCC2 | dxs | binding, SPR | – | – | – | 40 µM
CC1=C(/C=C/C(C)=C/C=C/C(C)=C/CO)C(C)(C)CCC1 | Retinol-binding protein 3 (RBP3, Bos taurus, UniProt P12661) | binding, surface plasmon resonance | – | pH 7.4, 25 °C | – | 1.31 ± 0.3 µM
CC#Cc1ccc(-c2ccccc2)cc1 | Cytochrome P450 2A13 | binding, absorbance | – | pH 7.4 | – | 28 µM
CCCC[N+](CC)(CC)CC | CNGA1 | cGMP-gated current block, channel blocker, inside-out patch clamp | HEK293 | with: cGMP 1 mM | – | 14640 ± 35 µM
O=C(N/N=C/c1cc2c(s1)CCCC2)c1cccs1 | dxs | binding, SPR | – | – | – | 40 µM
TAMRA-ADP | mutS (Escherichia coli, UniProt P23909, D693N) | fluorescence anisotropy | – | room temperature, no DNA | – | 0.646 ± 0.14 µM
Nc1nc2c(ncn2[C@@H]2O[C@H](COP(=O)(O)O)[C@@H](O)[C@H]2O)c(=O)[nH]1 | GUK1 (Homo sapiens, UniProt Q16774) | binding, NMR | – | pH 7.5 | – | 30 µM
COc1ccc(Oc2cn(-c3ccc(O)c(F)c3)nn2)cc1 | MIF (Homo sapiens, UniProt P14174) | cell-free assay, FP | – | pH 7.4 | – | 1.71 µM and 1 to 2 µM
CCCCCCCC[N+](CC)(CC)CC | CNGA1 | cGMP-gated current block, channel blocker, inside-out patch clamp | HEK293 | with: cGMP 1 mM | – | 605 ± 7 µM
O=P(O)(O)O[C@H]1[C@H](OP(=O)(O)O)[C@@H](O)[C@H](O)[C@H](O)[C@@H]1OP(=O)(O)O | Fermitin family homolog 1, PH domain (Fermt1, Mus musculus, UniProt P59113, E416A) | SPR | – | pH 7.5, biotinylated compound immobilised | – | 80.6 µM
O=C(N/N=C/c1ccc2cc[nH]c2c1)c1cc2c(s1)CCCC2 | dxs | binding, SPR | – | – | – | 32 µM
N[C@@H](CCCC=O)C(=O)O | Saccharopine dehydrogenase [NADP(+), L-glutamate-forming] (LYS9, Saccharomyces cerevisiae, UniProt P38999) | enzyme activity, substrate | – | pH 7.0, 25 °C, wild type, with: NADPH and L-glutamate saturating | – | 310 ± 70 µM
CC1(C)C2CCC(CN=C(N)CSS(=O)(=O)O)C1C2 (stereo not drawn) | Splicing factor U2AF 65 kDa subunit, RRM1-RRM2 region (Homo sapiens, UniProt P26368) | binding, surface plasmon resonance | – | no RNA | – | ~150 µM
c1ccc2ccccc2c1 | Cytochrome P450 2A13 | binding, absorbance | – | pH 7.4 | – | 0.35 µM
sclerostin | human LRP6 E1-E2 | SPR | – | – | – | 0.0033 µM
O=C(COc1ccc(Cl)cc1Cl)N/N=C/c1c[nH]c2ccccc12 | dxs | binding, SPR | – | – | – | 150 µM
CCCc1nc(C(C)(C)O)c(C(=O)O)n1Cc1ccc(-c2ccccc2-c2nnn[nH]2)cc1 | Rgg3 Streptococcus pyogenes | competition fluorescence polarization | – | with: FITC-SHP2-C8 10 nM | – | 19.8 µM
NC(=O)c1ccc[n+]([C@@H]2O[C@H](COP(=O)([O-])OP(=O)(O)OC[C@H]3O[C@@H](n4cnc5c(N)ncnc54)[C@H](OP(=O)(O)O)[C@@H]3O)[C@@H](O)[C@H]2O)c1 | kptA (Runella slithyformis, UniProt A0A7U3ZK32) | binding, isothermal titration calorimetry | – | with: saturating NAD+ | – | 951 ± 33 µM
CC1NC(NCCC[C@H](N)C(=O)O)=NC1=O (stereo partly drawn) | V domain Q100A | fluorescence titration | – | pH 6.5, 25 °C | – | > 10 µM
Nc1ncnc2c1ncn2[C@@H]1O[C@H](COP(=O)(O)OP(=O)(O)OP(=O)(O)O)[C@@H](O)[C@H]1O | MAP2K5 (Homo sapiens, UniProt Q13163) | – | – | – | – | 2.6 µM
CC(=O)N[C@H]1[C@H](O[C@H]2[C@@H](O)[C@@H](CO)O[C@H](O[C@@H]3[C@H](O)[C@@H](O)[C@H](O[C@H]4[C@H](O)[C@@H](O)[C@H](O)O[C@@H]4CO)O[C@@H]3CO)[C@@H]2O)O[C@H](CO)[C@H](O)[C@@H]1O[C@@H]1O[C@H](CO)[C@H](O)[C@H](O)[C@H]1O[C@@H]1O[C@@H](C)[C@@H](O)[C@@H](O)[C@@H]1O | Ribonuclease pancreatic (Homo sapiens, UniProt P07998, P47C) | binding, solid-phase fluorescence binding | – | pH 7.4, PBS, 0.005% Tween, with: BODIPY-labelled RNase | – | 0.8 ± 0.2 µM
O=C(NO)c1cnc(NC2(c3ccccc3)CC2)nc1 | MBLAC2 (Homo sapiens, UniProt Q68D91) | binding, competitor, chemoproteomic pulldown | SW-620 MV4-11 lysate | 1 h, 30 °C | – | > 31.6 µM
[I-].[K+] | SLC4A1 (Homo sapiens, UniProt P02730) | Cl- exchange, inhibitor, 36Cl flux | erythrocytes, external | pH 7.2, 0 °C, internal Cl- 129 mM | – | 700 µM
CCCC[C@H]1CCCCCCc2[nH]c(/C=C3\N=CC(c4ccc[nH]4)=C3OC)cc21 | pre-miR-21 RNA | binding, intrinsic fluorescence | – | with: 1.0 µM pre-miR-21 | – | 0.41 µM
Nc1ncnc2c1ncn2[C@@H]1O[C@H](CSCC[C@H](N)C(=O)O)[C@@H](O)[C@H]1O | PNMT (Homo sapiens, UniProt P11086) | fluorescence quenching | – | room temperature | lower = stronger binding | 4.3 ± 0.7 µM

Repeated from above:
Molecule | target | test | system | conditions | how to read | Kd
CC(=O)N[C@H]1[C@H](O[C@H]2[C@@H](O)[C@@H](CO)O[C@H](O[C@@H]3[C@H](O)[C@@H](O)[C@H](O[C@H]4[C@H](O)[C@@H](O)[C@H](O)O[C@@H]4CO)O[C@@H]3CO)[C@@H]2O)O[C@H](CO)[C@H](O)[C@@H]1O[C@@H]1O[C@H](CO)[C@H](O)[C@H](O)[C@H]1O[C@@H]1O[C@@H](C)[C@@H](O)[C@@H](O)[C@@H]1O | Ribonuclease pancreatic (Homo sapiens, UniProt P07998, P47C) | binding, solid-phase fluorescence binding | – | pH 7.4, PBS, 0.005% Tween, with: BODIPY-labelled RNase | – | 0.8 ± 0.2 µM
O=C(NO)c1cnc(NC2(c3ccccc3)CC2)nc1 | MBLAC2 (Homo sapiens, UniProt Q68D91) | binding, competitor, chemoproteomic pulldown | SW-620 MV4-11 lysate | 1 h, 30 °C | – | > 31.6 µM
